Published values of several laboratories.
Parts stem from different laboratories: compare values within a part only.

Study 1
Target: Sal-like protein 4, full length isoform B (SALL4, Homo sapiens, UniProt Q9UJQ4-2, residues 1-616)
Technique: universal PBM
Form: double-stranded DNA, one strand shown
Matrix: in vitro
Tested at: not given
Setting: 8-mer, flanks averaged, mean of replicates
Direction: higher = stronger binding
For `CAGGCATC`, the E-score was -0.00591.
For `AAGGCGGA`, the E-score was -0.144.
The E-score of `GTATCTTA` is reported as 0.278.
For `ACCTGATC`, the E-score was 0.0291.

Study 2
Target: Histone acetyltransferase KAT6A, winged helix 1, GST fusion (KAT6A, Homo sapiens, UniProt Q92794, residues 1-85)
Technique: protein binding microarray
Form: double-stranded DNA, one strand shown
Matrix: in vitro
Tested at: not given
Setting: 8-mer, flanks averaged, mean of 2 arrays, mostly near background
Reference: not given
Direction: higher = stronger binding
Residues (chain): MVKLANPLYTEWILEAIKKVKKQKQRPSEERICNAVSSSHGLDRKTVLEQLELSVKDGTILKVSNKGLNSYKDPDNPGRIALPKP
`GCAAAACC` gave an E-score of 0.0631.
`CCAAAACA` gave an E-score of -0.124.
`CGAAGAAC` gave an E-score of 0.0146.
`CCAGCAAC` gave an E-score of -0.16.

Study 3
Target: Protein C-ets-1 (ETS1, Homo sapiens, UniProt P14921, residues 1-441, Y397A, full length assumed)
Technique: protein-binding microarray
Form: double-stranded DNA, one strand shown
Matrix: in vitro
Tested at: not given
Setting: k-mer, scored over probes, only values ≥0.25
Direction: higher = stronger binding
Residues (chain): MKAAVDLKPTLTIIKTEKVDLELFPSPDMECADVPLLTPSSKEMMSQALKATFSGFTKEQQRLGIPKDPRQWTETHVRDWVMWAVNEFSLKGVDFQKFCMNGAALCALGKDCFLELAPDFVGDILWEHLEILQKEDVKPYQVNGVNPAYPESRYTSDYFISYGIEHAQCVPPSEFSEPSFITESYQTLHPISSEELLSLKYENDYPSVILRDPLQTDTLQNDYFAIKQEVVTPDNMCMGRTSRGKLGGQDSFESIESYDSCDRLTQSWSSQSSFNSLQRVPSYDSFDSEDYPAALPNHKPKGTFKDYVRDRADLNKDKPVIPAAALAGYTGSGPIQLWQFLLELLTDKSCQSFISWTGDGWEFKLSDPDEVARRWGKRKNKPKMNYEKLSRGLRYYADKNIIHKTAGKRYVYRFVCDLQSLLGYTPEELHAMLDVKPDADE
With `ACCGACAG` the E-score was 0.277.
`ACAACAAT` gave an E-score of 0.345.
`ATGACATA` gave an E-score of 0.262.
For `CAGCAAAA`, the E-score was 0.27.
`ACGCGCGG` gave an E-score of 0.259.

Further values, each from its own experiment
`PhoQ, residues 284 288 289 292 302 303 GLASVI` gave a fold induction of 16 (PhoP, residues 12 14 15 18 19 NYFTV (Escherichia coli, UniProt P23836); Sort-seq, item: YFP reporter; E. coli; PhoQ-PhoP variant library, together with: 10 µM Mg2+; reference: high Mg2+ state, higher = stronger signaling).

Repeated from above (study 1):
The E-score of `GTATCTTA` is reported as 0.278.
For `AAGGCGGA`, the E-score was -0.144.
